Results from different studies.
Each line is one published result; not all experiments were run side by side. Numbers after ± are the reported error.
Chain of UniProt Q07157 (whole entry, looked up): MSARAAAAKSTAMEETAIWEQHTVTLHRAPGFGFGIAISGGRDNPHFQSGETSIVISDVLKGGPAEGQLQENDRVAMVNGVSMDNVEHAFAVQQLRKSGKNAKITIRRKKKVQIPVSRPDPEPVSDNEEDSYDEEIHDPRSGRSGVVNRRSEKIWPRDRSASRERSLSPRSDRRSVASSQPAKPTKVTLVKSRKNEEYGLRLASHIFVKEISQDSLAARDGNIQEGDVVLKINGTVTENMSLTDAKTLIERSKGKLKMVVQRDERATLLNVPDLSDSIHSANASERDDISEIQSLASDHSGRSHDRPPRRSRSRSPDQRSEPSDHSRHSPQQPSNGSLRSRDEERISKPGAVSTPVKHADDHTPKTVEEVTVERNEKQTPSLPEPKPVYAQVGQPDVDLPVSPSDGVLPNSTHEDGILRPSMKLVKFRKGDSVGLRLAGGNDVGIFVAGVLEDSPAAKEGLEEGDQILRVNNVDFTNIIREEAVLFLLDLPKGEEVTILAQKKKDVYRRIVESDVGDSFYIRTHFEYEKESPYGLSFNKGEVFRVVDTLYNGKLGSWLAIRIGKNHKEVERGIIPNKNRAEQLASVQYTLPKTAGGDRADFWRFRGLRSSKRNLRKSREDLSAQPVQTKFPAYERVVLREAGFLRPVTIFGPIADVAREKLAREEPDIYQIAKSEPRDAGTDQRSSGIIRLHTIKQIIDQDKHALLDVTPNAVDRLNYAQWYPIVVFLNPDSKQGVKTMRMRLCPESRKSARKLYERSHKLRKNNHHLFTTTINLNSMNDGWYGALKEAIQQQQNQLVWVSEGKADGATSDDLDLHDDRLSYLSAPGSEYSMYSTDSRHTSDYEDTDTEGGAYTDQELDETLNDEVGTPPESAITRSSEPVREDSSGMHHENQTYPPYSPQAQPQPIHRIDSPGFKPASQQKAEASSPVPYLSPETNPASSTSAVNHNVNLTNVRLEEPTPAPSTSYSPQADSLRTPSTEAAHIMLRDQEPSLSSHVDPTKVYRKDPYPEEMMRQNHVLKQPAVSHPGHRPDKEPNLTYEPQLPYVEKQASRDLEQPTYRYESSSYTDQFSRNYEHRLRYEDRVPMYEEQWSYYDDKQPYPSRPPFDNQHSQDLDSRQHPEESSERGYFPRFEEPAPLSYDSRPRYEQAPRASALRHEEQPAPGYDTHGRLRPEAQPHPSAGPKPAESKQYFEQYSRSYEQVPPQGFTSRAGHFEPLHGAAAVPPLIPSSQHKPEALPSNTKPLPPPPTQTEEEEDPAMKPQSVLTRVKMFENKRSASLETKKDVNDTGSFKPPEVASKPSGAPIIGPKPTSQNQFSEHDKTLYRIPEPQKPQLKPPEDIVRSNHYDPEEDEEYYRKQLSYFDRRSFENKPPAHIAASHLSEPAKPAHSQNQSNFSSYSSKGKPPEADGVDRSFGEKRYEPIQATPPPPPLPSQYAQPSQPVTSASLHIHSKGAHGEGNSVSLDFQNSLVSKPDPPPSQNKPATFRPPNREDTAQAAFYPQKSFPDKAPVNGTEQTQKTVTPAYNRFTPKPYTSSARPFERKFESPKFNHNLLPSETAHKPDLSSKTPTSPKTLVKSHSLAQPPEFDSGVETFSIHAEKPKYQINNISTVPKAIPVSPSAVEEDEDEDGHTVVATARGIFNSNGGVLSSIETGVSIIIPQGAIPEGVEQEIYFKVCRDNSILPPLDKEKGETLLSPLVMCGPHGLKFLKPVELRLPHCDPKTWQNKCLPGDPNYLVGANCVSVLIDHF
Chain of UniProt Q9Y570 (whole entry, looked up): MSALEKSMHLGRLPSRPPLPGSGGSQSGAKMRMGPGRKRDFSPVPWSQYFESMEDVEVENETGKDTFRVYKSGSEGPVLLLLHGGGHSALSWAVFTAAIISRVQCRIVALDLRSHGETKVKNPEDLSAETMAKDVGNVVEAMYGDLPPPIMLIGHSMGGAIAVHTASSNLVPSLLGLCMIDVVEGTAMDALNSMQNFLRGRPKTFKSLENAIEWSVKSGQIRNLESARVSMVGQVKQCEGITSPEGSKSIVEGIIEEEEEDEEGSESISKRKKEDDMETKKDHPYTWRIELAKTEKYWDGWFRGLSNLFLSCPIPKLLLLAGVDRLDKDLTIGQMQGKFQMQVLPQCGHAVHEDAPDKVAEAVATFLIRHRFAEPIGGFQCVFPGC
Chain of UniProt P94040 (whole entry, looked up): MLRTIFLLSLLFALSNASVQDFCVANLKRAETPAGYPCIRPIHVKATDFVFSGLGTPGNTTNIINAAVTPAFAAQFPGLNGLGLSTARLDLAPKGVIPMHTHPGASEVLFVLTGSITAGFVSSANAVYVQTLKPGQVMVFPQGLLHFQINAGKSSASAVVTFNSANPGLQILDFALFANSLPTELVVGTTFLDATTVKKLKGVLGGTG
Chain of UniProt P21397 (whole entry, looked up): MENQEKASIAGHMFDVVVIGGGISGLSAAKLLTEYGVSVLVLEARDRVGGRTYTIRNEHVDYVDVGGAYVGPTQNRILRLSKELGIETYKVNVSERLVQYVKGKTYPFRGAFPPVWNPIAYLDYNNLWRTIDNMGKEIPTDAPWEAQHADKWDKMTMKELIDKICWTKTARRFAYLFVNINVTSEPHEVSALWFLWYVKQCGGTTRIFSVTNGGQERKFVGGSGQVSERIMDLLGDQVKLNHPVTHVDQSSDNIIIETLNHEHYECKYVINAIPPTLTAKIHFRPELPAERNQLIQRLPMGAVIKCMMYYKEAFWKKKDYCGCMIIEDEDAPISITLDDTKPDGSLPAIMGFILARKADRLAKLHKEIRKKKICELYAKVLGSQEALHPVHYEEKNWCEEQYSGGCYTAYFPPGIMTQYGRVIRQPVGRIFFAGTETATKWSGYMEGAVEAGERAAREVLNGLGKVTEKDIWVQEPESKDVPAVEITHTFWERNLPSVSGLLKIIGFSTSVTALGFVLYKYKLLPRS
Chain of UniProt P02716 (whole entry, looked up): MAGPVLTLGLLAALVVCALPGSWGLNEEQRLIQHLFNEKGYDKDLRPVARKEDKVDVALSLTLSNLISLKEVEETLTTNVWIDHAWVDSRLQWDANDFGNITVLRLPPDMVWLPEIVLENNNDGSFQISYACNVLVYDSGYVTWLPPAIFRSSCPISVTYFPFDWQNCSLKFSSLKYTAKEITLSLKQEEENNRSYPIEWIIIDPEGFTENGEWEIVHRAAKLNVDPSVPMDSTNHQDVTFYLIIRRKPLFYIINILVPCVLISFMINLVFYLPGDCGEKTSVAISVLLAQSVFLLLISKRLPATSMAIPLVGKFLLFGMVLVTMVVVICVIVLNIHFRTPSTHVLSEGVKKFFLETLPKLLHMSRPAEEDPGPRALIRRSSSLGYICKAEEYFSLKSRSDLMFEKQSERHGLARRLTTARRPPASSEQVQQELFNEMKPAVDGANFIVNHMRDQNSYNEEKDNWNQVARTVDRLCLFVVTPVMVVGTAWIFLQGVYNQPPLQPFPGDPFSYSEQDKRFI
Chain of UniProt P21709 (whole entry, looked up): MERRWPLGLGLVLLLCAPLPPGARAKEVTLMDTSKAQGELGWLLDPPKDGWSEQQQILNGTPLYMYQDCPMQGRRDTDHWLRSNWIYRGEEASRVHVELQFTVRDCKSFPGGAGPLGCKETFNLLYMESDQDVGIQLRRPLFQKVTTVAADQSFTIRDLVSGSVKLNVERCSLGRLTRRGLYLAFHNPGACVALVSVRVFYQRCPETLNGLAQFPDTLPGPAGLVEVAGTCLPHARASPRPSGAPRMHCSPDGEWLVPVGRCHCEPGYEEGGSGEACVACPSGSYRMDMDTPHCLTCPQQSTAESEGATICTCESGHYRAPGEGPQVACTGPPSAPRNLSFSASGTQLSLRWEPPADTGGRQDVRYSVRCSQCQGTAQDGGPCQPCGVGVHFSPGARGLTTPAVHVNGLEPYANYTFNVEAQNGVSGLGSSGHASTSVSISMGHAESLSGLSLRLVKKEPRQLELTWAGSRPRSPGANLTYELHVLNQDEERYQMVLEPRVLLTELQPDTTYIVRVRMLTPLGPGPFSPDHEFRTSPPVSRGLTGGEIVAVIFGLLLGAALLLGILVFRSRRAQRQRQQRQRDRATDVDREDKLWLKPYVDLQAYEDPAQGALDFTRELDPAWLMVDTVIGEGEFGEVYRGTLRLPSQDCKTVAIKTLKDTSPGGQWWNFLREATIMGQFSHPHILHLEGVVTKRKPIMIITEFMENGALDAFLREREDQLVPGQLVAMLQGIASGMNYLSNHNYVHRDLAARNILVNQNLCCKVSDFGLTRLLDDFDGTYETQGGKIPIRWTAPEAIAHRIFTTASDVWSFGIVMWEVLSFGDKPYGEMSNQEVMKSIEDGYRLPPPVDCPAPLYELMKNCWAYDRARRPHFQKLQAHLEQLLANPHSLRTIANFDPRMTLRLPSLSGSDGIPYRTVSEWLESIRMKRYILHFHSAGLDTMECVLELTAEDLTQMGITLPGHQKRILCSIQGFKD
Chain of UniProt P20782 (whole entry, looked up): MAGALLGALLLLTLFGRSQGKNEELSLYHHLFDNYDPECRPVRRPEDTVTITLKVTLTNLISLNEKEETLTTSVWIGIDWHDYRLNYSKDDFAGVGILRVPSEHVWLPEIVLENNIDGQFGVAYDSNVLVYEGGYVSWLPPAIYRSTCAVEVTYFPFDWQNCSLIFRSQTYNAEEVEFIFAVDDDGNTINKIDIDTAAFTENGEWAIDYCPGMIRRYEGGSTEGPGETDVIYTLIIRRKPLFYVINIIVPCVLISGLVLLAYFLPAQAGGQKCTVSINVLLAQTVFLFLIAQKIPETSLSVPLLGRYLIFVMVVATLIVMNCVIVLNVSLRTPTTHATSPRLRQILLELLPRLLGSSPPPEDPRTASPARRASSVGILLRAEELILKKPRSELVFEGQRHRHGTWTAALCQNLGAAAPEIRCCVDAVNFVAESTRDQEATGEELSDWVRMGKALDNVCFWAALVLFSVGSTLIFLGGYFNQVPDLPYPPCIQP

For `O=C(Nc1cccnn1)N1CCC(=Cc2cccc(Oc3ccc(C(F)(F)F)cn3)c2)CC1`, the inhibition was 17% (MAOA (Homo sapiens, UniProt P21397); enzyme activity, inhibitor; 10 µM, human, added: kynuramine substrate).
The resting-state koff of `c1cncc([C@@H]2CCCN2)c1` is reported as 3650 s⁻¹ (Chrnd/Chrna1/Chrne (Mus musculus, UniProt P02716+P04756+P20782); single-channel kinetics; wild-type receptor).
For `C[C@]12CC[C@H]3[C@@H](CCC4=CC(=O)CC[C@@]43C)[C@@H]1CC[C@@H]2C(=O)CO`, the k-1 was 0.55 ± 0.06 s⁻¹ (CYP11B2 (Homo sapiens, UniProt P19099, A320V); substrate).
For `C[C@H]1CN(c2n[nH]c3nc(N[C@H]4CC[C@H](NS(=O)(=O)CCC(F)(F)F)CC4)ncc23)CCO1`, the Hill coefficient was 1 (Tight junction protein 1 (TJP1, Homo sapiens, UniProt Q07157); binding, Kinobeads competition, item: TJP1).
For `[2H]c1c([2H])c([C@]2([2H])CCCN2C(=O)C(C)(C)Oc2ccc3cn[nH]c3c2)c([2H])c([2H])c1C([2H])([2H])[2H]`, the remaining binding was 76% (EPHA1 (Homo sapiens, UniProt P21709); KINOMEscan; 1 µM; relative to: DMSO control).
`COc1ccc(N2C(=O)N(c3c(C)cccc3Cl)Cc3cnc(Nc4ccc(C5CCN(C)CC5)cc4OC)nc32)nc1` has an inhibition of 3.65% (ULK3 (Homo sapiens, UniProt Q6PHR2); kinase activity; 0.5 µM).
`N[C@@H](Cc1c[nH]c2ccccc12)C(=O)O` — result for binding: “no binding” (Germin-like protein subfamily 3 member 1 (GLP1, Arabidopsis thaliana, UniProt P94040); microscale thermophoresis; Arabidopsis protoplast extract; concentration not given).
The inhibition of `CN(C(=O)n1cnc(-c2ccc[n+]([O-])c2)c1)C1CCCCC1` is reported as 4% (CCKAR (Homo sapiens, UniProt P32238); radioligand binding; 50 µM, added: [3H]L-364,718).
The peptide ratio of `O=C(c1ccc(Cl)cc1)N1CCN2C(=O)N(OC(=O)N3CCOc4ccccc43)C(=O)C2C1` (centres unmarked) is reported as 1 (Protein phosphatase methylesterase 1 (Homo sapiens, UniProt Q9Y570); MS-based ABPP; SW-620 conditioned medium; 10 µM, 1 h, 37 °C; relative to: compound over DMSO, lower = more inhibition).
`O=C(Nc1cnccc1Cl)N1CCN(Cc2ccc3c(c2)OC(F)(F)O3)CC1`: “inhibition of binding” -2% (ESR2 (Homo sapiens, UniProt Q92731); radioligand binding; 10 µM, added: [3H]estradiol).
The inhibition of `CN1CCN(c2cc(-c3ccncc3)c(-c3ccc4ccccc4c3)nn2)CC1` is reported as 11.7% (UTS2R (Homo sapiens, UniProt Q9UKP6); antagonist, FLIPR; 10 µM).

A few entries again:
For `[2H]c1c([2H])c([C@]2([2H])CCCN2C(=O)C(C)(C)Oc2ccc3cn[nH]c3c2)c([2H])c([2H])c1C([2H])([2H])[2H]`, the remaining binding was 76% (EPHA1 (Homo sapiens, UniProt P21709); KINOMEscan; 1 µM; relative to: DMSO control).
